Measurements collected from several papers.
Protocols differ between the studies behind these lines.
Organism: Mycobacterium tuberculosis

Clc1cccc(NCc2ccc(Oc3ccccn3)cc2)c1
MIC (H37Rv, GAST-Fe medium; 1 weeks, pH 6.6): 20 µM

Nc1ncnc2c1ncn2[C@@H]1O[C@H](COS(=O)(=O)NC(=O)CCCCCCCCCCC(=O)O)[C@@H](O)[C@H]1O
MIC (broth microdilution; H37Rv, GAST medium; MIC at >99% growth inhibition): 25 to 50 µM

COc1cccc(NCc2ccc(Oc3ccccn3)cc2)c1
MIC (H37Rv, 7H9/ADC/Tween medium; 1 weeks): > 50 µM

Nc1ncnc2c1ncn2[C@@H]1O[C@H](COS(=O)(=O)NC(=O)CCCCCCCCCCOc2ccc(C(F)(F)F)cc2)[C@@H](O)[C@H]1O
MIC (broth microdilution; H37Rv, GAST medium; MIC at >99% growth inhibition): 25 to 50 µM

c1ccc(-c2ccc(-c3ccnc(CN4CCC5(CCCCC5)CC4)c3)cc2)cc1
MIC (microbial growth, resazurin; H37RV): 0.0156 µg/mL

Fc1ccc(NCc2ccc(Oc3ccccn3)cc2)cc1
MIC (H37Rv, 7H9/ADC/Tween medium; 2 weeks): > 50 µM

COc1ccc(-c2nc3cc(NC(=O)[C@H](C)Oc4ccccc4C#N)ccc3o2)cc1
MIC (H37Rv ATCC 27294, GAST/Fe and 7H9/ADC/Tween; 168 h): ≤ 5 µM

Nc1ncnc2c1ncn2[C@@H]1O[C@H](COS(=O)(=O)NC(=O)CCCCCCCCCCOc2cccc(C(F)(F)F)c2)[C@@H](O)[C@H]1O
MIC (broth microdilution; H37Rv, GAST medium; MIC at >99% growth inhibition): 25 to 50 µM

Cc1cc2nc(C)c(C(=O)OCc3ccccc3)n2c(C)n1
MIC (microplate alamar blue; H37Rv (ATCC 27294), GAS medium; replicating bacteria, range): 0.9 to 1.4 µM

C[C@H](Oc1cccc(Cl)c1Cl)C(=O)Nc1ccc2oc(-c3ccc(C(=O)O)cc3)nc2c1
MIC (H37Rv ATCC 27294, GAST/Fe medium without guanine; 1 week): ≤ 5 µM

Cc1ccn2c(C(=O)NCc3ccccc3)c(C)nc2c1
MIC (H37Rv, glycerol-alanine-salts medium; 90% growth inhibition): 0.2 µM

CC(C)c1ccc(-c2ccnc(CN3CCC4(CC3)CC4)c2)cc1
MIC (microbial growth, resazurin; H37RV): 1 to 2 µg/mL

O=C(OCc1ccccc1)[C@@H]1COC(c2ccccc2)=N1
MIC (microplate alamar blue; H37Rv (ATCC 27294), GAS medium; replicating bacteria, range): 2.9 to 6.2 µM

C[C@H](Oc1cccc(Cl)c1Cl)C(=O)Nc1ccc2oc(-c3ccc(C(=O)NO)cc3)nc2c1
MIC (H37Rv ATCC 27294, GAST/Fe medium without guanine; 1 week): ≤ 5 µM

CC(C)c1ccc(-c2ccnc(CNC3CCCCCCC3)c2)cc1
MIC (microbial growth, resazurin; H37RV): 1 to 2 µg/mL

Nc1ncnc2c1ncn2[C@@H]1O[C@H](COS(=O)(=O)NC(=O)CCCCCCCCCCOc2ccccc2)[C@@H](O)[C@H]1O
MIC (broth microdilution; H37Rv, GAST medium; MIC at >99% growth inhibition): 3 µM

C[C@H](Oc1cccc(F)c1F)C(=O)Nc1ccc2oc(-c3ccc(C#N)cc3)nc2c1
MIC (H37Rv ATCC 27294, GAST/Fe and 7H9/ADC/Tween; 168 h): ≤ 5 µM

COc1ccc(NCc2ccc(Oc3ccccn3)cc2)cc1
MIC (H37Rv, 7H9/ADC/Tween medium; 2 weeks): 82 µM

Nc1ncnc2c1ncn2[C@@H]1O[C@H](COS(=O)(=O)NC(=O)CCCCCCCCCCOc2cccc(Cl)c2)[C@@H](O)[C@H]1O
MIC (broth microdilution; H37Rv, GAST medium; MIC at >99% growth inhibition): 25 to 50 µM

O=C(OCc1ccccc1)c1coc(-c2ccccc2)n1
MIC (microplate alamar blue; H37Rv (ATCC 27294), GAS medium; replicating bacteria, range): 0.5 to 7.9 µM

Cc1cccc(NCc2ccc(Oc3ccccn3)cc2)c1
MIC (H37Rv, GAST-Fe medium; 1 weeks, pH 6.6): 43 µM

CCOC(=O)COc1ccc(-c2nc3cc(NC(=O)[C@H](C)Oc4cccc(Cl)c4Cl)ccc3o2)cc1
MIC (H37Rv ATCC 27294, GAST/Fe and 7H9/ADC/Tween; 168 h): < 1 µM

Cc1ccn2c(C(=O)NCc3ccccc3)c(-c3ccccc3)nc2c1
MIC (microplate alamar blue; H37Rv (ATCC 27294), 7H12 medium; replicating bacteria, range): 2.8 to 3 µM

COC(=O)CCCCCCCCCCC(=O)NS(=O)(=O)OC[C@H]1O[C@@H](n2cnc3c(N)ncnc32)[C@H](O)[C@@H]1O
MIC (broth microdilution; H37Rv, GAST medium; MIC at >99% growth inhibition): 3.13 to 6.25 µM

Fc1ccccc1NCc1ccc(Oc2ccccn2)cc1
MIC (H37Rv, 7H9/ADC/Tween medium; 2 weeks): > 100 µM

CO[C@H]1/C=C/O[C@@]2(C)Oc3c(C)c(O)c4c(O)c(c(/C=N/N5CCN(C)CC5)c(O)c4c3C2=O)NC(=O)/C(C)=C\C=C\[C@H](C)[C@H](O)[C@@H](C)[C@@H](O)[C@@H](C)[C@H](OC(C)=O)[C@@H]1C
MIC (microplate alamar blue; H37Rv (ATCC 27294), GAS medium; replicating bacteria, range): 0.08 to 0.1 µM

C[C@H](Oc1cccc(F)c1F)C(=O)Nc1ccc2oc(-c3ccncc3)nc2c1
MIC (H37Rv ATCC 27294, GAST/Fe and 7H9/ADC/Tween; 168 h): ≤ 5 µM

CC1CCN(Cc2cc(-c3ccc(C(C)C)cc3)ccn2)CC1
MIC (microbial growth, resazurin; H37RV): 1 to 2 µg/mL

Cc1nc2ncccn2c1C(=O)OCc1ccccc1
MIC (microplate alamar blue; H37Rv (ATCC 27294), GAS medium; replicating bacteria, range): 1.7 to 2.7 µM

O=C(O)Cc1cc(I)c(Oc2cc(I)c(O)c(I)c2)c(I)c1
MIC (microbial growth; H37RV; 10 days): 22 µg/mL

COc1ccc(-c2ccc(C(=O)OCc3ccccc3)cn2)cc1
MIC (microplate alamar blue; H37Rv (ATCC 27294), GAS medium; replicating bacteria, range): 1.5 to 2.5 µM

Clc1ccccc1NCc1ccc(Oc2ccccn2)cc1
MIC (H37Rv, 7H9/ADC/Tween medium; 1 weeks): > 100 µM

C[C@H](Nc1cccc(F)c1F)C(=O)Nc1ccc2oc(-c3ccc(C#N)cc3)nc2c1
MIC (microbial growth; ATCC27294 H37RV; 7 days): 1 µM

c1ccc(-c2ccc(-c3ccnc(CN4CCC5(CCCC5)CC4)c3)cc2)cc1
MIC (Alamar Blue; H37Rv): 0.0156 µg/mL

O=C(OCc1ccccc1)c1csc(-c2ccccc2)n1
MIC (microplate alamar blue; H37Rv (ATCC 27294), GAS medium; replicating bacteria, range): 1.5 to 8.5 µM

Cc1ccccc1NCc1ccc(Oc2ccccn2)cc1
MIC (H37Rv, 7H9/ADC/Tween medium; 1 weeks): > 100 µM

CCCCCCCCCCCC(=O)NS(=O)(=O)OC[C@H]1O[C@@H](n2cnc3c(N)ncnc32)[C@H](O)[C@@H]1O
MIC (broth microdilution; H37Rv, GAST medium; MIC at >99% growth inhibition): 0.19 to 0.78 µM

CC1CCN(Cc2cc(-c3ccc4ccccc4c3)ccn2)CC1
MIC (microbial growth, resazurin; H37RV): 2 to 4 µg/mL

CCCCCCCCCC[C@H](C)C(=O)NS(=O)(=O)OC[C@H]1O[C@@H](n2cnc3c(N)ncnc32)[C@H](O)[C@@H]1O
MIC (broth microdilution; H37Rv, GAST medium; MIC at >99% growth inhibition): 50 µM

O=S1(=O)CCN(c2n[n+]([O-])c3cc4c(cc3[n+]2[O-])CCC4)CC1
MIC (resazurin microplate; H37Rv): 2.5 to 5 µg/mL

Repeated from above:
Nc1ncnc2c1ncn2[C@@H]1O[C@H](COS(=O)(=O)NC(=O)CCCCCCCCCCOc2cccc(Cl)c2)[C@@H](O)[C@H]1O
MIC (broth microdilution; H37Rv, GAST medium; MIC at >99% growth inhibition): 25 to 50 µM

CC1CCN(Cc2cc(-c3ccc4ccccc4c3)ccn2)CC1
MIC (microbial growth, resazurin; H37RV): 2 to 4 µg/mL

Fc1ccc(NCc2ccc(Oc3ccccn3)cc2)cc1
MIC (H37Rv, 7H9/ADC/Tween medium; 2 weeks): > 50 µM

Nc1ncnc2c1ncn2[C@@H]1O[C@H](COS(=O)(=O)NC(=O)CCCCCCCCCCOc2ccccc2)[C@@H](O)[C@H]1O
MIC (broth microdilution; H37Rv, GAST medium; MIC at >99% growth inhibition): 3 µM

COC(=O)CCCCCCCCCCC(=O)NS(=O)(=O)OC[C@H]1O[C@@H](n2cnc3c(N)ncnc32)[C@H](O)[C@@H]1O
MIC (broth microdilution; H37Rv, GAST medium; MIC at >99% growth inhibition): 3.13 to 6.25 µM
